Experimental data of several laboratories.
Parts stem from different laboratories: compare values within a part only.

Sample 1
Target: RNA binding protein fox-1 homolog 2, RRM domain, GST-SBP tag (RBFOX2, Homo sapiens, UniProt O43251-10, residues 100-194)
Technique: RNA Bind-n-Seq
Form: RNA
Sample: in vitro
Concentration: 365 nM
Notes: natural RNA segment, single round, ends assumed
Relative to: no-protein control
Direction: higher = stronger binding
Shared flanks, not repeated: GGGAGUUCUACAGUCCGACGAUC … UGGAAUUCUCGGGUGCCAA
Residues (chain): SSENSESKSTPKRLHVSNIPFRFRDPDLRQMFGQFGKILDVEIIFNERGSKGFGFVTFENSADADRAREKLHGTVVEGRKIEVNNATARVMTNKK
Sequence | RBNS enrichment (R)
CAAAGAGGGUAUGGUUAGGUACGGGUCUUCCUGCCUCAUUCCUCUUCCUCUUUGUGUAGGUUUCAGCCACAAAACUGUCAUUCACUCUAGGGGACCCCUACUAAAGGGUA | 0.235
AAGAUUGAAUGUGUAUUUCUUAAAAAUACAACUUUGUGUUGUACUUUGAAAUAAAUGAUGCUUUUUUAAAAGCCUUGUUUUGUGGUUUUUUUUACACACAAGGUGUAUUU | 1.02
UUAUCCAGGCUACAUCAGGAGGUUGGACUUCAAUGCAGUGCAUUUCUAGAAACAGUUUGGUAAACAUAAAAGAGAGCAAGAUCAUUCUCGAUCUUCAUCCUCUUCAGCAU | 0.414
AACUCACCCCAGCAUAUUUUUAGGCCUCAUCUCAGUGCCUAUGAGGGGCCUGCCAGAAAAGUCACUAACCUGUCUCAGUGUGGCCUUGUCCAGCCUUGUGUUUUCUGUAA | 1.63
GGUCUUGAACAACUGCCUCACUCUAUAGCCCAAGUUAUCUAGGUCUGAUAGUUGGGAUAAAGGGCUCAGCUCAGUUUACCUGUUACAAUUCAUAGUAUAUUGUUGUUUGU | 0.449
CUCGCAUGACUACGGGGCCCCCCAGGAGGCGACUCUCGGGGCCAACAAGGUGAUCGAAGGCCUGGACACGGGCCUGCAGGGCAUGUGUGUGGGAGAGAGGCGGCAGCUCA | 1.78
AGACUACUUGACAGGACAUAAGAUGGAAACGCCAUCAGGAAAAGAUGUGGCUGAACAAGCAGGAAGAGUCCUGCUGUGUAAAUUGUAAAUGUCGAGUGCACUUGAUGAAG | 0.674
UCAGUGGAACUGCAACAUCUACUGGAUCAGCUCCAUCCUCAAGCACUUUGCCAGCAGCUUCUAGCCUUAAAACCCCAGGAACUUCUGCAAAUAUGAAUGGACCCAUUUCA | 0.31
CUCUGGACCAUACGCGGAGGAGUUUUCUGUGUGGUCUCCAGCUCCUCUCCAGACACAGAGACAUGGGAGUGGGGAGCGGAGCUUGGCCCUGCGCCCUGUGCAGGGAAAGG | 0.738
UUCCCCUCGUGUGAGCCCAGCCUGUGGUCUUCUCCGUACCCGCAACGUGGUCAUCUGUGCCCGUGACGUCACCUGUGCCCGUGCGUGGCGUCCCCGUCUCCGUUGGGGCC | 2.86
UCUCUAACACCAGCACACUUCUUACGAGAUGUACUCAACCUGGCCUACUGGCCAGGUCACCAAGCAGUGGCCUUUAUCUGACAUGCUCACUUUAUUAUCCAUGUUUUAAA | 0.479
CUCCCCAUCAUCCACGCCAAGUGGAAGCCACUGGACCACAGGAGGUGUGAUAGAGCCUUUGAUCUUCAGGAUGCACGGUUUCUGUUCUGCCCCCUCAGGGAUGUGGGAAU | 0.22

Sample 2
Target: Centromere-binding protein 1, full length, N-terminal tag (CBF1, Saccharomyces cerevisiae, UniProt P17106, residues 1-351)
Sequence of UniProt P17106 (whole entry, looked up): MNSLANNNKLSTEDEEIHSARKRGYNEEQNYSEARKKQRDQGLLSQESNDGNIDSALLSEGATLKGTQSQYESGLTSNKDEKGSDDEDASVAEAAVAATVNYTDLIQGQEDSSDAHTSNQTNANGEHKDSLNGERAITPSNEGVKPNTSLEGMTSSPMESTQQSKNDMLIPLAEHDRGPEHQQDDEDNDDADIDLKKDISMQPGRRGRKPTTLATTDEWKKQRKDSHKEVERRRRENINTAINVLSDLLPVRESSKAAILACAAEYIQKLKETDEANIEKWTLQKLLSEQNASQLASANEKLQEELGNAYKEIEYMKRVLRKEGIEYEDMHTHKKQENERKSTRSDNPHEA
Technique: protein-binding microarray
Form: double-stranded DNA, one strand shown
Sample: in vitro
Concentration: 0.8 µM
Notes: whole 60-bp probe, no competitor
Direction: higher = stronger binding
Shared flanks, not repeated: … GTCTTGATTCGCTTGACGCTGCTG
Sequence | fluorescence intensity
GAAACACAAGTTCATCACCTACCTTCGAAAAATTAG | 522 a.u.
GAACTAGTAGTACCAGGTGAGGTAAAACAAGCATAG | 571 a.u.
GAACGTTGGTGTGCCGACGTGATACAGAGCGGTTAG | 586 a.u.
GAATGCTCAACTCGTTTGATGTTACTTTCTTTGTAG | 475 a.u.
GAAGCGTGTTCTAGTCACGAAACGCGCCAAAAATAG | 594 a.u.
GAACACATGATATATCATCACCCGGAGGCCGGTTAG | 815 a.u.
CTAGTGGTATAGGCTCACGCGGCCTGGCCGGAATTC | 524 a.u.
CTAGATGTTGGTTTGACCGTGATTGATGTCCAATTC | 567 a.u.
CTAATATATCCAAACCACACCACACATGGTCTCTTC | 555 a.u.
GAAATTATTGTGTCGTGCATTCCATTAGATTGGTAG | 561 a.u.
CTAGAAACGCTACACGTGATGATAATGGAACTATTC | 7370 a.u.
CCTAACTACTATAATCACCCCTTATAGCTTCGTACA | 506 a.u.
GAATTATATGTGTATTACGTGATATACAGTGACTAG | 613 a.u.
GAATTCAAGTCTCATCATATGAAATTTCTTTCGTAG | 551 a.u.
GAAAGCCGATTTTATCACGTGAAAAACAAAAAATAG | 10200 a.u.
CTACATAGAACATATCTGGTGAATGTATATGAGTTC | 512 a.u.
GAATCCCTGTTGATTAACGTGTTTATCCATTTCTAG | 479 a.u.
CCTAACTACTATAATAATCACACATAGCTTCGTACA | 546 a.u.
CCTAACTACTATAGTCACGCGTAATAGCTTCGTACA | 1110 a.u.
CTAACTCATTCTAATCATGCGTCCCGTAAATCTTTC | 821 a.u.

Sample 3
Target: Histone acetyltransferase KAT6A, winged helix 1, GST fusion (KAT6A, Homo sapiens, UniProt Q92794, residues 1-85)
Technique: protein binding microarray
Form: double-stranded DNA, one strand shown
Sample: in vitro
Concentration: not given
Notes: 8-mer, flanks averaged, mean of 2 arrays, mostly near background
Relative to: not given
Direction: higher = stronger binding
Target sequence (chain): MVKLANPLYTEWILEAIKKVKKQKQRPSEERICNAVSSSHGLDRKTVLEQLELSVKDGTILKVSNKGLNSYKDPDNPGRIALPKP
Sequence | E-score
CCTGTGCA | 0.0327
CAGGCCAC | -0.0132
CGTACCGC | 0.382
CTAGAGGA | -0.177
CTCCGAAC | 0.133
CCGAGGGC | 0.232
GAAGTCTC | -0.0999
CTGGTTGC | -0.0861
TTAATGAA | -0.117
CCCACTAA | -0.126
AGATCAGA | 0.0135
GAACCGAC | 0.128
AGTAGCAT | -0.0556
ACCCCCGT | 0.293
TGAAATAA | -0.299
TCATCACA | -0.177
ATACGGAG | 0.208
AGATTGAC | 0.0431
CGGATATC | 0.081
CTCCAAAA | -0.156
CCAGACCA | -0.277
ACGCTATA | 0.188
ATCGCCTA | -0.046
TGCTTACA | -0.0521
GACTCTAC | -0.165

Sample 4
Target: Interferon regulatory factor 7, full length, phosphomimetic (IRF7, Homo sapiens, UniProt Q92985, residues 1-503, S471D/S472D/S475D/S476D/S477D/S483D/S484D/S487D)
Technique: protein-binding microarray
Form: double-stranded DNA, one strand shown
Sample: in vitro
Concentration: 2200 nM top
Notes: 60-bp whole probe
Added: salmon DNA 0.4 mg/ml
Relative to: random background probes
Direction: higher = stronger binding
Shared flanks, not repeated: GCCTAGCAC … GTCTTGATTCGCTTGACGCTGCTG
Construct (chain): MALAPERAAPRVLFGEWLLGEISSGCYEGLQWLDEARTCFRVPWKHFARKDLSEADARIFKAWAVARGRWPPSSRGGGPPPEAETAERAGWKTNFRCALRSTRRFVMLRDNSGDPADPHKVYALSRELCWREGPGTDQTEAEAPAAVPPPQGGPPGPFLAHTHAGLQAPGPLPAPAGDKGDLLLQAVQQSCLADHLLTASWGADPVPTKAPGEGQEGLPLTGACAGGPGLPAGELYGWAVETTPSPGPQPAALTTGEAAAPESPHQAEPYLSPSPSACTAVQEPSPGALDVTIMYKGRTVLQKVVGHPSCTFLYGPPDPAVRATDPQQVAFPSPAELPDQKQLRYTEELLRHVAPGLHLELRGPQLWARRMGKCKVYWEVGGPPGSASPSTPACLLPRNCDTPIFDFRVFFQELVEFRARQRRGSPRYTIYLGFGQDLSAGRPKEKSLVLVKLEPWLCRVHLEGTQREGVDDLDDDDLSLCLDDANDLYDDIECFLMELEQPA
Sequence | fitted relative affinity
TTAGAACTGAGTCTCGATTTGTGCTAG | 0.48 z-score
AAGACCATCCTGTGTCTTAAAGTGCTA | -0.0562 z-score
GCCGGTTTCGGGACTGGGGACGTGCTA | 4.94 z-score
CAGCCTCTGAGCAGCTCGGCGTGCTAG | -0.367 z-score
TCATCTCCCATTATATTACTGTGCTAG | 2.13 z-score
AACGATCTCAGTTTCGAGACGTGCTAG | 3.51 z-score
TTAGGTTTCCTTATCGTTTAGTGCTAG | 1.85 z-score
TTAAGTTTCGGGTATCGGTTAGTGCTA | 7.41 z-score
TCATATGCCGACTTTGGAACTGTGCTA | 0.435 z-score
GACGATTTCAGTTTCGCGACGTGCTAG | 4.18 z-score
GACGGTCTCCTTATCCTGACGTGCTAG | 1.06 z-score
CATTGCCTATTTTTCCCCTGGTGCTAG | 1.6 z-score
TCGTATGTGACCTTTTTAAGAGTGCTA | 0.926 z-score
GACGGACTGGGTATAGGGACGTGCTAG | -0.998 z-score
TTAGGGATCGGTATCGGTTAGTGCTAG | -0.0173 z-score
ACTCATTTTCATTTTGTGTCGTGCTAG | 6.94 z-score
TCAATTTTTAGTTAGAAACTGTGCTAG | -0.117 z-score
GACGATTTCAGTATCAAGACGTGCTAG | 0.869 z-score
AACGGTTTCGGGTATCGGGACGTGCTA | 6.47 z-score
CAAATACTCTTCCATGGAGAAGTGCTA | 0.0538 z-score
TTAGGTATCCTACTGCGTTAGTGCTAG | 0.464 z-score
GAAAATTAGTGTTTTGCCCTGTGCTAG | 1.16 z-score
TTAGATCTCAGACAGGATTAGTGCTAG | -0.151 z-score
TTAGGTTTCGGTTTTCGGTTAGTGCTA | 13.7 z-score
TCAAGCCTCAGTCCTCACACTGTGCTA | 0.678 z-score

Sample 5
Target: Prothrombin, mature alpha-thrombin (F2, Homo sapiens, UniProt P00734)
Technique: aptamer microarray, sandwich
Form: DNA with 2'F-ANA
Sample: in vitro
Concentration: 200 nM
Notes: whole 15-mer aptamer, many near background
Added: Cy3 exosite-II aptamer, 400 nM
Direction: higher = stronger binding
Sequence: GGTTGGTGTGGTTGG
Modification | mean fluorescence intensity [a.u.]
2'F-ANA at 1 2 3 4 5 6 10 11 14 | 48
2'F-ANA at 1 2 11 15 | 148
2'F-ANA at 2 5 8 14 | 65.1
2'F-ANA at 1 2 3 6 10 11 12 13 15 | 75.8
2'F-ANA at 3 4 5 6 8 9 11 | 80
2'F-ANA at 3 4 8 9 10 11 13 14 | 287
2'F-ANA at 1 3 8 10 11 12 15 | 129
2'F-ANA at 1 2 6 9 11 12 13 15 | 187
2'F-ANA at 1 3 4 5 6 7 8 9 13 14 15 | 46.5
2'F-ANA at 2 3 5 6 8 9 12 13 | 141
2'F-ANA at 1 3 5 8 9 12 | 134
2'F-ANA at 1 4 5 6 9 10 12 | 52.9
2'F-ANA at 1 2 3 4 5 6 7 8 11 13 | 53.1
2'F-ANA at 1 3 7 8 9 10 11 13 | 78
2'F-ANA at 1 3 8 10 12 15 | 116
2'F-ANA at 1 3 7 10 11 12 13 | 120
2'F-ANA at 2 3 4 7 8 10 11 14 15 | 173
2'F-ANA at 1 2 3 5 8 9 10 13 14 15 | 45.1
2'F-ANA at 1 2 3 4 6 7 10 12 | 76.3
2'F-ANA at 1 3 4 5 6 7 8 13 14 15 | 48.6
2'F-ANA at 1 2 6 9 10 12 15 | 140
2'F-ANA at 3 5 6 9 10 11 12 15 | 71.8
2'F-ANA at 2 5 7 8 9 11 12 13 14 15 | 48.3
2'F-ANA at 1 2 4 5 6 8 10 11 12 13 14 15 | 49.2
2'F-ANA at 1 2 7 9 11 12 13 15 | 221

For quick reference, copied from above (sample 5):
Modification | mean fluorescence intensity [a.u.]
2'F-ANA at 1 3 4 5 6 7 8 9 13 14 15 | 46.5
2'F-ANA at 2 3 5 6 8 9 12 13 | 141
2'F-ANA at 1 3 5 8 9 12 | 134
2'F-ANA at 1 4 5 6 9 10 12 | 52.9
2'F-ANA at 1 2 3 4 5 6 7 8 11 13 | 53.1
2'F-ANA at 1 3 7 8 9 10 11 13 | 78
2'F-ANA at 1 3 8 10 12 15 | 116
2'F-ANA at 1 3 7 10 11 12 13 | 120
2'F-ANA at 2 3 4 7 8 10 11 14 15 | 173
2'F-ANA at 1 2 3 5 8 9 10 13 14 15 | 45.1
2'F-ANA at 1 2 3 4 6 7 10 12 | 76.3
